Measurements collected from several papers.
Compare with care: the assays were run in different laboratories. Values joined by “and” are separate records of one study, mostly repeats; a detail may differ. ± gives the spread as reported. In brackets after ≈: the same amount, converted by molar mass.
Organism: Staphylococcus aureus

CCCCCC(=O)N[C@@H](CCCNC(=N)N)C(=O)N[C@@H](CCCNC(=N)N)C(=O)N[C@@H](CCCNC(=N)N)C(=O)N[C@@H](CCCNC(=N)N)C(=O)N[C@H](C(=O)N[C@@H](CC(C)C)C(=O)N[C@H](C(=O)N[C@@H](CCCNC(=N)N)C(=O)N[C@@H](CCCNC(=N)N)C(=O)N[C@H](C(=O)N[C@@H](CC(C)C)C(=O)N[C@@H](CCCNC(=N)N)C(=O)N[C@@H](CC(C)C)C(=O)N[C@@H](CCCNC(=N)N)C(=O)N[C@@H](CO)C(=O)N[C@@H](CO)C(=O)N[C@@H](C)C(=O)N[C@@H](Cc1ccc(O)cc1)C(N)=O)C(C)C)[C@@H](C)CC)[C@@H](C)CC  FICI (checkerboard; unit not given, with: oritavancin; lower means synergy): ~0.19
CC[C@H](C)[C@H](NC(=O)[C@H](Cc1c[nH]c2ccccc12)NC(=O)[C@@H](NC(=O)[C@H](Cc1ccccc1)NC(=O)[C@@H]1CCCN1C(=O)[C@@H](NC(=O)[C@H](C)N)[C@@H](C)CC)[C@@H](C)CC)C(=O)N[C@@H](Cc1ccccc1)C(=O)N[C@@H](CCCNC(=N)N)C(=O)N[C@@H](CC(C)C)C(=O)N[C@@H](CC(C)C)C(=O)N[C@@H](CCCNC(=N)N)C(=O)N[C@@H](CCCCN)C(=O)NCC(N)=O  MBC (ATCC 19609; 18 h, 37 °C): 15 µM (≈ 25.9 µg/mL)
Cn1c(=O)ccc2ccc(F)c(CCNC[C@H]3CN(c4cnc5c(n4)NC(=O)CO5)C(=O)O3)c21  MIC50: 0.03 µg/mL (≈ 0.064 µM)
Nc1c([N+](=O)[O-])oc2ccc3ccccc3c12  MIC90 (REMA): > 32 µg/mL
Cc1c2c(nn1C)CSCc1cc(n(C)n1)CSc1cc(c3ccccc3c1)OCCCc1c(C(=O)O)n(C)c3c-2c(Cl)ccc13  fold change (label-free quantitative proteomics, measured: SAOUHSC_01399 protein; SA113; concentration not given; relative to: untreated control): 9.51
N#Cc1ccc2c(ccc3oc([N+](=O)[O-])cc32)c1  MIC90 (REMA): 2 µg/mL (≈ 8.4 µM)
Cl.O[C@]12C=C(c3nccc4c3[nH]c3ccccc34)[C@@H]3CCN(CCCC/C=C\CC1)C[C@@]31C[C@@H]3/C=C\CCCCN3[C@H]12  IC50 (growth; ATCC 43300, MRSA): 0.19 ± 0.001 µg/mL
CC(C)CCCCCCCCCCCCCCc1cc(O)cc(O)c1  IC50 (bacterial growth; MRSA USA300): > 200 µM
CC[C@H](C)[C@H](NC(=O)[C@H](Cc1ccccc1)NC(=O)[C@@H](NC(=O)[C@H](Cc1c[nH]c2ccccc12)NC(=O)[C@@H]1CCCN1C(=O)[C@@H](NC(=O)[C@H](C)N)[C@@H](C)CC)[C@@H](C)CC)C(=O)N[C@@H](Cc1ccccc1)C(=O)N[C@@H](CCCNC(=N)N)C(=O)N[C@@H](CC(C)C)C(=O)N[C@@H](CC(C)C)C(=O)N[C@@H](CCCNC(=N)N)C(=O)N[C@@H](CCCCN)C(=O)NCC(N)=O  MBC (ATCC 6051; 18 h, 37 °C): 1.88 µM (≈ 3.25 µg/mL)
CC(C)[C@@H]1NC(=O)CNC(=O)[C@H](CC(N)=O)NC(=O)[C@H](CCCNC(=N)N)NC(=O)[C@H](Cc2ccc(O)cc2)NC(=O)[C@H](C(C)C)NC(=O)[C@@H](NC(=O)[C@@H](NC(=O)[C@H](CC(N)=O)NC(=O)[C@H](Cc2c[nH]c3ccccc23)NC(=O)[C@H](C)NC(=O)[C@H](Cc2ccccc2)NC(=O)CN)C(C)C)CSSC[C@@H](C(=O)N[C@@H](Cc2c[nH]cn2)C(=O)N[C@@H](CCCNC(=N)N)C(=O)N[C@@H](CCCNC(=N)N)C(=O)N[C@@H](C)C(=O)N[C@@H](CC(N)=O)C(N)=O)NC(=O)[C@H](C(C)C)NC(=O)[C@H](CCCNC(=N)N)NC1=O  Emax (bactericidal activity; CGMCC 1.9; 24 h): -5.6 log CFU
CC[C@H](C)[C@H](NC(=O)[C@H](CCCNC(=N)N)NC(=O)[C@H](CCCNC(=N)N)NC(=O)[C@H](CCCNC(=N)N)NC(=O)[C@H](CCCNC(=N)N)NC(=O)[C@H](CCCNC(=N)N)NC(=O)[C@@H](N)CCCNC(=N)N)C(=O)N[C@@H](CO)C(=O)N[C@@H](Cc1ccccc1)C(=O)N[C@@H](CC(C)C)C(=O)NCC(=O)N[C@@H](CO)C(=O)N[C@@H](CCCCN)C(=O)N[C@@H](CCCCN)C(=O)N[C@@H](CCCCN)C(=O)N[C@@H](CCCCN)C(=O)N[C@@H](CCCCN)C(=O)N[C@@H](CC(C)C)C(=O)N[C@@H](CC(C)C)C(=O)N[C@@H](CCCCN)C(=O)N[C@@H](CCCNC(=N)N)C(N)=O  FICI (checkerboard; unit not given, with: oritavancin; lower means synergy): 0.14
CCCCc1c([N+](=O)[O-])oc2ccc3ccccc3c12  MIC90 (REMA): > 32 µg/mL
CC(=O)NC[C@H]1CN(c2ccc(N3CCOCC3)c(F)c2)C(=O)O1  MIC90: 2 µg/mL (≈ 5.93 µM)
CN[C@H](CC(C)C)C(=O)N[C@H]1C(=O)N[C@@H](CC(N)=O)C(=O)N[C@H]2C(=O)N[C@H]3C(=O)N[C@H](C(=O)N[C@H](C(=O)O)c4cc(O)cc(O)c4-c4cc3ccc4O)[C@H](O)c3ccc(c(Cl)c3)Oc3cc2cc(c3O[C@@H]2O[C@H](CO)[C@@H](O)[C@H](O)[C@H]2O[C@H]2C[C@](C)(N)[C@H](O)[C@H](C)O2)Oc2ccc(cc2Cl)[C@H]1O  antibacterial activity (VRS2 VanA VRSA, mouse thigh infection; dose not given): inactive
COc1ccc2c(ccc3oc([N+](=O)[O-])c(C)c32)c1  MIC90 (REMA): > 32 µg/mL
OB(O)c1csc2ccccc12  biofilm formation (crystal violet; USA300 wild type; 1 µM; relative to: wild type untreated): 79.3% and 83% and 82%
CC[C@H](C)[C@H](NC(=O)[C@H](Cc1ccccc1)NC(=O)[C@@H](NC(=O)[C@H](Cc1ccccc1)NC(=O)[C@@H]1CCCN1C(=O)[C@@H](NC(=O)[C@H](C)N)[C@@H](C)CC)[C@@H](C)CC)C(=O)N[C@@H](Cc1c[nH]c2ccccc12)C(=O)N[C@@H](CCCNC(=N)N)C(=O)N[C@@H](CC(C)C)C(=O)N[C@@H](CC(C)C)C(=O)N[C@@H](CCCNC(=N)N)C(=O)N[C@@H](CCCCN)C(=O)NCC(N)=O  MBC (ATCC 19609; 18 h, 37 °C): 1.88 µM (≈ 3.25 µg/mL)
CO[C@@]1(NC(=O)Cc2cccs2)C(=O)N2C(C(=O)O)=C(COC(N)=O)CS[C@@H]21  inhibition zone diameter (ATCC 25923; 128 µg per disk): 26 mm
CO[C@H]1[C@H](O[C@H]([C@H]2O[C@@H](n3ccc(=O)[nH]c3=O)[C@H](O)[C@@H]2O)[C@H](NCCCNC(=O)[C@@H](NC(=O)[C@@H](NC(=O)N[C@H](C(=O)O)C(C)C)[C@@H]2CCN=C(N)N2)[C@@H](OC(=O)CCCCCCCCCCCCN(O)C(=N)N)C(C)C)C(=O)O)O[C@H](CN)[C@H]1O  MIC90 (resazurin microplate; 71080 (NR-46418)): 15.5 ± 0.455 µg/mL (≈ 12.8 µM)
O=C(O)c1cn(C2CC2)c2cc(N3CCNCC3)c(F)cc2c1=O  biofilm inhibition (MRSA ATCC 33591; 1/2 × MIC): 90.5%
CC[C@H](C)[C@H](NC(=O)[C@H](Cc1c[nH]c2ccccc12)NC(=O)[C@@H](NC(=O)[C@H](Cc1c[nH]c2ccccc12)NC(=O)[C@@H]1CCCN1C(=O)[C@@H](NC(=O)[C@H](C)N)[C@@H](C)CC)[C@@H](C)CC)C(=O)N[C@@H](Cc1c[nH]c2ccccc12)C(=O)N[C@@H](CCCNC(=N)N)C(=O)N[C@@H](CC(C)C)C(=O)N[C@@H](CC(C)C)C(=O)N[C@@H](CCCNC(=N)N)C(=O)N[C@@H](CCCCN)C(=O)NCC(N)=O  MBC (ATCC 35556; 18 h, 37 °C): 3.75 µM (≈ 6.78 µg/mL)
C=CC[C@@H]1c2ccc(OC)c(OC)c2CN2CCc3cc4c(cc3[C@H]12)OCO4  relative wound size (P2rx7+/+ mice, skin wound infection; dose not given, day 2; relative to: day 0): 1.12 and 1.28
OB(O)CSc1nc2ccccc2n1Cc1ccc(C(F)(F)F)cc1C(F)(F)F  FIC index (checkerboard; NRS21; with: cefoxitin): 0.25
CN[C@H](CC(C)C)C(=O)N[C@H]1C(=O)N[C@@H](CC(N)=O)C(=O)N[C@H]2C(=O)N[C@H]3C(=O)N[C@H](C(=O)N[C@H](C(=O)O)c4cc(O)cc(O)c4-c4cc3ccc4O)[C@H](O)c3ccc(c(Cl)c3)Oc3cc2cc(c3O[C@@H]2O[C@H](CO)[C@@H](O)[C@H](O)[C@H]2O[C@H]2C[C@](C)(N)[C@H](O)[C@H](C)O2)Oc2ccc(cc2Cl)[C@H]1O  ROS level (DCFH-DA fluorescence; MRSA ATCC 33591; 2 × MIC; higher = more ROS): 791 a.u.

For quick reference, copied from above:
CC(C)CCCCCCCCCCCCCCc1cc(O)cc(O)c1  IC50 (bacterial growth; MRSA USA300): > 200 µM
N#Cc1ccc2c(ccc3oc([N+](=O)[O-])cc32)c1  MIC90 (REMA): 2 µg/mL (≈ 8.4 µM)
CC[C@H](C)[C@H](NC(=O)[C@H](Cc1c[nH]c2ccccc12)NC(=O)[C@@H](NC(=O)[C@H](Cc1ccccc1)NC(=O)[C@@H]1CCCN1C(=O)[C@@H](NC(=O)[C@H](C)N)[C@@H](C)CC)[C@@H](C)CC)C(=O)N[C@@H](Cc1ccccc1)C(=O)N[C@@H](CCCNC(=N)N)C(=O)N[C@@H](CC(C)C)C(=O)N[C@@H](CC(C)C)C(=O)N[C@@H](CCCNC(=N)N)C(=O)N[C@@H](CCCCN)C(=O)NCC(N)=O  MBC (ATCC 19609; 18 h, 37 °C): 15 µM (≈ 25.9 µg/mL)
